Measured values gathered from unrelated publications.
Parts stem from different laboratories: compare values within a part only. Several values in a cell are separate wells, animals, samples, runs or records.
UniProt Q9BWU1, sequence (whole entry, looked up): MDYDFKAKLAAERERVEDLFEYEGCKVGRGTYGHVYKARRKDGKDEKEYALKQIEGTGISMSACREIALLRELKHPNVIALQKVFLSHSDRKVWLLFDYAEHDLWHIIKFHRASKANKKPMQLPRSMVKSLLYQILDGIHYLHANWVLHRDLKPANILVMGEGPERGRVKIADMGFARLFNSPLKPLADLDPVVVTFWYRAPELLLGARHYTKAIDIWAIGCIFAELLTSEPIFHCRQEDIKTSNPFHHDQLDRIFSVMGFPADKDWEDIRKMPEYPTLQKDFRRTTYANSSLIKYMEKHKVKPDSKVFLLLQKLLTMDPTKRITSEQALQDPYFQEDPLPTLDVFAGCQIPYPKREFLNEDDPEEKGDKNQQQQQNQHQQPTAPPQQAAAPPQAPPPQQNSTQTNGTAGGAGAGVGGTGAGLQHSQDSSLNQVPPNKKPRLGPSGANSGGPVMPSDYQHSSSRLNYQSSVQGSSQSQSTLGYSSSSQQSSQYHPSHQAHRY
UniProt Q00536, sequence (whole entry, looked up): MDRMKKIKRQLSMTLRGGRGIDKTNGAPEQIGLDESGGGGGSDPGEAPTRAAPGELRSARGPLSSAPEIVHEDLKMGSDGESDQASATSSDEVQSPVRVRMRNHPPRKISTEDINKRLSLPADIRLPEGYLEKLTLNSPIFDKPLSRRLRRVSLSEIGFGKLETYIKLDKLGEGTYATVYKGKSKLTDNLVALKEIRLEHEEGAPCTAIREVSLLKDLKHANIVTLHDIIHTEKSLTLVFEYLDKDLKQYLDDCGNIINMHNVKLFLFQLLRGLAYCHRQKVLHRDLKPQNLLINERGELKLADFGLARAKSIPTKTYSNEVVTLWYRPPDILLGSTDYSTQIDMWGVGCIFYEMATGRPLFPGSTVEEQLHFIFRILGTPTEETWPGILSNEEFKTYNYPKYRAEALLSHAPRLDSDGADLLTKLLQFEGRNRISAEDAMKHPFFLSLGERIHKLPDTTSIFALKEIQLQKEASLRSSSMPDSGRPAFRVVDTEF
UniProt Q8WU08, sequence (whole entry, looked up): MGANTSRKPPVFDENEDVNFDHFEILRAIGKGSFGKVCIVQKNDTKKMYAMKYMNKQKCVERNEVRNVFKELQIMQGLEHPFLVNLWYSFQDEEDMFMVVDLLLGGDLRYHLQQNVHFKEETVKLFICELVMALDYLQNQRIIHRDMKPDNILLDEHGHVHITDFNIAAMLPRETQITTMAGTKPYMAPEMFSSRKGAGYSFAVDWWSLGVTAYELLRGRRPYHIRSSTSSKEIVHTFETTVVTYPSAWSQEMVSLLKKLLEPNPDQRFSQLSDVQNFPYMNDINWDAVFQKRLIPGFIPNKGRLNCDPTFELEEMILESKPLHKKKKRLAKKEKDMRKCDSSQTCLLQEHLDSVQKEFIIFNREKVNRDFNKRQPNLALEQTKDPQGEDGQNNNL
UniProt P78368, sequence (whole entry, looked up): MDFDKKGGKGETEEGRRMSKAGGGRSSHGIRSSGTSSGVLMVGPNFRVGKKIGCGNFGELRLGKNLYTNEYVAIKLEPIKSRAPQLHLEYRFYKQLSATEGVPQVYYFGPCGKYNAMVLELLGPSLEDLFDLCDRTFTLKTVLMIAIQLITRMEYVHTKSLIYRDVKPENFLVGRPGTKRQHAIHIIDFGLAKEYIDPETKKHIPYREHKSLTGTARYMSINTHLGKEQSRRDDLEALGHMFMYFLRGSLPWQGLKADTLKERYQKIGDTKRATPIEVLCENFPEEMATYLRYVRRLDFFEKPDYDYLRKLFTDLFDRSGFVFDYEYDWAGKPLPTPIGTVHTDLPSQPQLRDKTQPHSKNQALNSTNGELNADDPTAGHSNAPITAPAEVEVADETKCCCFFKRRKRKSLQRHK

Study 1 — observed: binding; technique: NanoBRET; cell line: HEK293 (live); reading: lower = stronger binding; endpoint: target engagement
SMILES: C=CC(=O)N1CCN(c2nc(OC[C@@H]3CCCN3C)nc3c2CCN(c2cccc4cccc(C)c24)C3)C[C@@H]1CC#N
Target: GTPase KRas (KRAS, Homo sapiens, UniProt P01116, G12D)
1 µM: 41.4% and 47.6% and 46.4% and 42%
0.3979 µM: 86.3% and 80.7% and 84.3% and 83.5%
1.602 µM: 13% and 12.5% and 17.1% and 12.6%

Study 2 — mode: degrader; technique: HiBiT; cell line: HEK293; endpoint: remaining protein
SMILES: Cn1cc(-c2cccc(CN3CCC4(CC3)COc3c4ccc4c3CN([C@@H]3CCC(=O)NC3=O)C4=O)c2)cn1
SALL4: Sal-like protein 4 (SALL4, Homo sapiens, UniProt Q9UJQ4)
UniProt Q9UJQ4, sequence (whole entry, looked up): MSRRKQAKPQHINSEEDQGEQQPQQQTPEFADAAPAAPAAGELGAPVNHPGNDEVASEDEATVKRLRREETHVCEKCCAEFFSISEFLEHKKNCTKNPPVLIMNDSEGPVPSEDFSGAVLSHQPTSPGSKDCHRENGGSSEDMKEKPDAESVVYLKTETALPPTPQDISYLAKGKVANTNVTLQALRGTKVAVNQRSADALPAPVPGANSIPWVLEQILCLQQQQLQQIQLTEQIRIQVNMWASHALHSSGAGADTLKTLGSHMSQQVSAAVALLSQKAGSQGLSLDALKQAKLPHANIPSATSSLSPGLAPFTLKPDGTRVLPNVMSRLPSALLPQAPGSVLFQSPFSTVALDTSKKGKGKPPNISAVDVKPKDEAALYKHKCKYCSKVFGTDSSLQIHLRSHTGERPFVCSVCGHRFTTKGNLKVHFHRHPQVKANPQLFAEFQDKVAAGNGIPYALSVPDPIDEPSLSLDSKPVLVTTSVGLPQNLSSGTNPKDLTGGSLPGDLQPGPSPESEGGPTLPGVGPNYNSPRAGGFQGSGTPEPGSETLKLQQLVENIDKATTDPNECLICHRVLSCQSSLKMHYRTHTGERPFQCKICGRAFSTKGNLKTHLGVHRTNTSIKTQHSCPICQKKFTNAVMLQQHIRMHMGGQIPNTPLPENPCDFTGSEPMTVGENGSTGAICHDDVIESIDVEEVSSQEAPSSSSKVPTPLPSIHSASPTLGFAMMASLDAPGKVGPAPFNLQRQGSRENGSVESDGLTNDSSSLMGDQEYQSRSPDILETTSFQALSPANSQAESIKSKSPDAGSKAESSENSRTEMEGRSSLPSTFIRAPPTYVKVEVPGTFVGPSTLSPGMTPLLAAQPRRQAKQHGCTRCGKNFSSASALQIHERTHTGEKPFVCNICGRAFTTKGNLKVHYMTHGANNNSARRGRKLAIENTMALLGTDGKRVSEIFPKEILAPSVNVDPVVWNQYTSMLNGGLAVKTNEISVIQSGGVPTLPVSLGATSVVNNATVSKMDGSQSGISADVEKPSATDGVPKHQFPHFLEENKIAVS
GSPT1: Eukaryotic peptide chain release factor GTP-binding subunit ERF3A (GSPT1, Homo sapiens, UniProt P15170)
UniProt P15170, sequence (whole entry, looked up): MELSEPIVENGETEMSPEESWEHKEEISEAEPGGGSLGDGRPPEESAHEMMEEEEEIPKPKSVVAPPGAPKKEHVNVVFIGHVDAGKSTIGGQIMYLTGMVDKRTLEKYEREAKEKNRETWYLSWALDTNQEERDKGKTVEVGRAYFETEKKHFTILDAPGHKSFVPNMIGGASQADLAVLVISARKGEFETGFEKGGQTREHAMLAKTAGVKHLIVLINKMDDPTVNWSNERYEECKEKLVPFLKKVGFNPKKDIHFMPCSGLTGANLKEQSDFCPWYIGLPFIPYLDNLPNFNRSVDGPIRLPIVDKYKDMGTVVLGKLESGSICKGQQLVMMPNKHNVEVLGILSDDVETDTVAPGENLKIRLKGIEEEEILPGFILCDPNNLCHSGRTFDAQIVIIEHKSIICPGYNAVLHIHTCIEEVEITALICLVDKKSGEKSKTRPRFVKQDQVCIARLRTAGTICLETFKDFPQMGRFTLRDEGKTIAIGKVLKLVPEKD
CSNK1A1: Casein kinase I isoform alpha (CSNK1A1, Homo sapiens, UniProt P48729)
UniProt P48729, sequence (whole entry, looked up): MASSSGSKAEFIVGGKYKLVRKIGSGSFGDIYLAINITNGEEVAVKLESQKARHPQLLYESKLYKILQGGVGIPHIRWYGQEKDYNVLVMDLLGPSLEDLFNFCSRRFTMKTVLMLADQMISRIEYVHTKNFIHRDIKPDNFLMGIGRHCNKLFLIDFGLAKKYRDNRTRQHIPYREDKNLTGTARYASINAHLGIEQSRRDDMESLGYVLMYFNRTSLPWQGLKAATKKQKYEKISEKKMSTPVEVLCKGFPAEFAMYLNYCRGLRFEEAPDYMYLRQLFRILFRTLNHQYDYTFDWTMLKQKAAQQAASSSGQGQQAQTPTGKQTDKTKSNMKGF
DNA-binding protein Ikaros: DNA-binding protein Ikaros (Homo sapiens, UniProt Q13422)
UniProt Q13422, sequence (whole entry, looked up): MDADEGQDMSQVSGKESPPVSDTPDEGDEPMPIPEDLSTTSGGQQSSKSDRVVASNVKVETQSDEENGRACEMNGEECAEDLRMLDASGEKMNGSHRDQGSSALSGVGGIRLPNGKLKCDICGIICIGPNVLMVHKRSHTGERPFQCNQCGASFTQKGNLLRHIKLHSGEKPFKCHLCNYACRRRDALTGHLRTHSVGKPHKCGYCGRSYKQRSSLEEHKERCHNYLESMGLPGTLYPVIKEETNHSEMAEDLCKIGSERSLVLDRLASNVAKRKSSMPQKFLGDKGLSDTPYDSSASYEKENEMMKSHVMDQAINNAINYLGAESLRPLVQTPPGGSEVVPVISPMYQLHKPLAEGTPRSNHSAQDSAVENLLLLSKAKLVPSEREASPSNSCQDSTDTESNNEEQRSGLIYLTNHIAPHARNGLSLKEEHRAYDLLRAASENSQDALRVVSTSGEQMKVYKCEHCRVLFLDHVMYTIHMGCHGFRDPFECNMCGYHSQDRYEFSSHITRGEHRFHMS
Zinc finger protein Aiolos: Zinc finger protein Aiolos (Homo sapiens, UniProt Q9UKT9)
UniProt Q9UKT9, sequence (whole entry, looked up): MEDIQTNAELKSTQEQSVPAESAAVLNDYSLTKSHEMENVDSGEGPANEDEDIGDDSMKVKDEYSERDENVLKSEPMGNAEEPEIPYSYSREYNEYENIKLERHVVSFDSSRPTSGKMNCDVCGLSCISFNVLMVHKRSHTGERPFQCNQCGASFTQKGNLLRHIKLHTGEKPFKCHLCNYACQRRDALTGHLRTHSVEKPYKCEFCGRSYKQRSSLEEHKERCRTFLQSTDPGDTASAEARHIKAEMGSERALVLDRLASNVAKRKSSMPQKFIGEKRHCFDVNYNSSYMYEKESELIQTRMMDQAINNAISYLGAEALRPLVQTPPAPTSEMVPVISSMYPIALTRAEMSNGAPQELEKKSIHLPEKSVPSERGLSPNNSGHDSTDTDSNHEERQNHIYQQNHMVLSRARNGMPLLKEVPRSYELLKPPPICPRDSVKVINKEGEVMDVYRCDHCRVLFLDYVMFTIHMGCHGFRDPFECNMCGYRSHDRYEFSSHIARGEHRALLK
SALL4; 4.572 nM: 98.1% and 99.1%
SALL4; 370.37 nM: 73.8% and 83.2%
GSPT1; 41.15 nM: 104% and 105%
GSPT1; 0.1694 nM: 106% and 101%
CSNK1A1; 0.1694 nM: 104% and 108%
DNA-binding protein Ikaros; 4.572 nM: 92.1% and 97.9%
CSNK1A1; 10000 nM: 101% and 97.9%
Zinc finger protein Aiolos; 10000 nM: 94% and 93.2%
SALL4; 0.5081 nM: 94.9% and 103%
Zinc finger protein Aiolos; 1111.11 nM: 103% and 96.4%
DNA-binding protein Ikaros; 0.5081 nM: 104% and 100%
GSPT1; 370.37 nM: 105% and 90%

Study 3 — concentration: 1 µM; endpoint: remaining binding
SMILES: CC[C@@]1(c2ccccc2)C2=C(CC(C)(C)CC2=O)Nc2n[nH]cc21
Cyclin-dependent kinase 16 (CDK16, Homo sapiens, UniProt Q00536); kinase binding, KINOMEscan; reference: DMSO control: 100%
Casein kinase I isoform gamma-2 (CSNK1G2, Homo sapiens, UniProt P78368); binding, competition with immobilised ligand: 99%
Cyclin-dependent kinase 19 (CDK19, Homo sapiens, UniProt Q9BWU1); KINOMEscan: 100%
Serine/threonine-protein kinase Nek4 (NEK4, Homo sapiens, UniProt P51957); kinase binding, KINOMEscan; reference: DMSO control: 100%
Phosphatidylinositol 5-phosphate 4-kinase type-2 gamma (PIP4K2C, Homo sapiens, UniProt Q8TBX8); binding, competition with immobilised ligand: 91%
Mast/stem cell growth factor receptor Kit (KIT, Homo sapiens, UniProt P10721, L576P); binding, competition with immobilised ligand: 64%
Mitogen-activated protein kinase kinase kinase 19 (MAP3K19, Homo sapiens, UniProt Q56UN5); binding, competition with immobilised ligand: 98%
Serine/threonine-protein kinase 32A (STK32A, Homo sapiens, UniProt Q8WU08); kinase binding, KINOMEscan; reference: DMSO control: 100%

Single results of other studies
C=CCN1C(=O)C(O)(C(=O)O)Oc2cc(F)ccc21 (stereo not drawn) — inhibition (Eclipta prostrata; fresh weight; 150 g ai/ha, post-emergence treatment): 50.4% and 47.9% and 52.8%

Excerpt of the above (study 2):
CSNK1A1; 10000 nM: 101% and 97.9%
